Measured values collected from several papers.
Parts stem from different laboratories: compare values within a part only.

Sample 1 — technique: protein-binding microarray; molecule type: double-stranded DNA, one strand shown; matrix: in vitro; concentration: 2540 nM top; notes: 60-bp whole probe; with: salmon DNA 0.4 mg/ml; reference: random background probes; direction: higher = stronger binding; quantity: fitted relative affinity; all sequences stand within: GCCTAGCAC … GTCTTGATTCGCTTGACGCTGCTG
Target: Interferon regulatory factor 3, full length, phosphomimetic (IRF3, Homo sapiens, UniProt Q14653, residues 1-427, S386D/S396D/S398D/S402D/T404D/S405D)
Target sequence (chain): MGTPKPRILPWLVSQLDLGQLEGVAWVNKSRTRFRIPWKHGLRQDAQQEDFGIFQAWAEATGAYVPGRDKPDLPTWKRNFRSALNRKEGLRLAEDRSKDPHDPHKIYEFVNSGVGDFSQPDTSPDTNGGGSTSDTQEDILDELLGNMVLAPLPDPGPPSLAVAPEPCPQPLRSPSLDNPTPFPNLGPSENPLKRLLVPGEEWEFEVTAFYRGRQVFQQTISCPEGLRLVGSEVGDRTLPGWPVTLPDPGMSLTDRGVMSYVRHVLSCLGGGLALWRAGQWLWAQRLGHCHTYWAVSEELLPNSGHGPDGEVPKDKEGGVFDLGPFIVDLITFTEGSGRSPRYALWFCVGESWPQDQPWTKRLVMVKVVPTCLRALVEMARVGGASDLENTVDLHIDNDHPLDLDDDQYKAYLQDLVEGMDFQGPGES
CTGGTCTCCGGTGTTTCCTAGTGCTAG: 0.952 z-score
TTAGATATCTGGACTGGATTAGTGCTA: -0.312 z-score
TTAGGTTTCAACTTTCGGTTAGTGCTA: 2.64 z-score
TCATGCATCTATCTTAAACTGTGCTAG: 0.194 z-score
TCAGCTTTCCCGTCCAGACTGTGCTAG: 1.2 z-score
TGGGTGACTCTTACTCATTAGTGCTAG: -0.605 z-score
GACGGTCTCCTGCTGCTGACGTGCTAG: 0.174 z-score
GACGAACTGGACTATCGGGACGTGCTA: -0.239 z-score
CTGTTTTTCCCCTGCACTCAGTGCTAG: 1.34 z-score
AGAAACTTGTGTTTGTCCCTGTGCTAG: 0.446 z-score
GACGATATCGGGTTTCGCGACGTGCTA: 0.587 z-score
TCATGTGTCTTAAATAGGACTGTGCTA: -0.0219 z-score
GGCGGACTGCTTTTCCTGACGTGCTAG: -0.424 z-score
GACGATTTCAGGTTCGAGACGTGCTAG: 1.63 z-score
TTAGGACTGGGACTCGGTTAGTGCTAG: -0.919 z-score
GACGATATCAATTTCGAGACGTGCTAG: 1.4 z-score
TTAGGACTGTTTATCCTTTAGTGCTAG: 0.916 z-score
TTAGGACGGGACTATCGGTTAGTGCTA: -0.375 z-score

Sample 2 — technique: protein binding microarray; molecule type: double-stranded DNA, one strand shown; matrix: in vitro; concentration: not given; reference: not given; direction: higher = stronger binding; quantity: E-score
Target: Histone acetyltransferase KAT6A, winged helix 1, GST fusion (KAT6A, Homo sapiens, UniProt Q92794, residues 1-85)
Notes: 8-mer, flanks averaged, mean of 2 arrays, mostly near background
Residues (chain): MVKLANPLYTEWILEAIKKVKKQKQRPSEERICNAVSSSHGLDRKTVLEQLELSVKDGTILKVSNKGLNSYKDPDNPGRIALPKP
CTCGAGCA: -0.261
CCTGACCG: 0.144
CTTGCAAA: -0.0785
GCTGATAC: -0.0141
ACATGGAC: -0.229
ATTGCCCA: -0.181
GGATTGCA: -0.00137
CGGGGTAC: 0.288
ACGGTGCT: 0.0971
ACATGCCA: -0.12
CCACTGTA: -0.148
GCGCATTA: 0.213
ATTCTCTG: -0.00353
CGCACAAG: 0.0643
CCGAAGGA: 0.0109
CTTTTCCC: -0.0941

Sample 3 — technique: RNA Bind-n-Seq; molecule type: RNA; matrix: in vitro; concentration: 200 nM; notes: whole 134-nt RNA, ends assumed; with: 150 mM KCl; reference: input library; direction: higher = stronger binding; quantity: log2 enrichment
Target: Ras GTPase-activating protein-binding protein 1, full length (G3BP1, Homo sapiens, UniProt Q13283)
Chain of UniProt Q13283 (whole entry, looked up): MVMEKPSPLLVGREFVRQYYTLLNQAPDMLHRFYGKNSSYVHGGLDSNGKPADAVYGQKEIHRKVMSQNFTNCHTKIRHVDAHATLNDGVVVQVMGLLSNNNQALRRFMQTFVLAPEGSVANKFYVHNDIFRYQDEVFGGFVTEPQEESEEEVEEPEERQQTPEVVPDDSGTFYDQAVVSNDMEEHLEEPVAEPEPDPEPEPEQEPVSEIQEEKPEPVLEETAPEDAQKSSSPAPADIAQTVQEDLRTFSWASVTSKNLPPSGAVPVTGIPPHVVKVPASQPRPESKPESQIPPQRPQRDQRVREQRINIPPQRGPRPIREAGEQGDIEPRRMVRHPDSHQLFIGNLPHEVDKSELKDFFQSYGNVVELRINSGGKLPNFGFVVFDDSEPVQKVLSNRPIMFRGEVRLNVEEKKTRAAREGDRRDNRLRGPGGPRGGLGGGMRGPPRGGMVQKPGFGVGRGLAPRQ
All sequences stand within: GGGAGUUCUACAGUCCGACGAUC … UGGAAUUCUCGGGUGUCAAGG
CACAAACAACACGCACCCACACAGACACAGAGGGAAGGGGUUGGGAUGGGGACAGGGUGCACAGCAGGGCGGGGUAGGACCCCAGCCCCU: 1.84
UCAAGUCCUGUGCUACACAUCGUAUGUACCGAAUCGGGGAGGGGUGGGGAGGGGAAAGUAUUAUGUUACGCCGUUCGGAUCUGCACUUCC: 1.44
UGGUUUUGGUGCCUGGCAUCGAAGAUGGUGUGUUCUUUCUGGAAACUGUAUAUCUUAUUGGACUUAUCCAGAUGAUGAGAAACGCAAGGU: -0.666
CAAGUCCUGUGCUACACAUCGUAUGUACCGAAUCGGCCCCGGCCCCGGCCCCGGGGAAAGUAUUAUGUUACGCCGUUCGGAUCUGCACUU: -1.04
UCCUGUGCUACACAUCGUAUGUACCGAAUCGGUUUUUUUGGGUUUUUUUGGUUUUUUUGGAAAGUAUUAUGUUACGCCGUUCGGAUCUGC: -0.297
ACCAUGCAGGUGGGCAUCUUUGGGAAGUGGGGCAAGGGGGGGAUAGGGAGGGGGGUAACACUGUGGGAACAGGUGGUCCCAGGUCGUUUC: 1.3
CCUGUGCUACACAUCGUAUGUACCGAAUCGGGAAAAAAAGGAAAAAAAGGAAAAAAAGGGGAAAGUAUUAUGUUACGCCGUUCGGAUCUG: -0.857
UCCUGUGCUACACAUCGUAUGUACCGAAUCGGGGUUUUUGGGUUUUUGGGUUUUUGGGGAAAGUAUUAUGUUACGCCGUUCGGAUCUGCA: 0.114
GCAGGAAGUAAAAACAAAUGGAGAUGCUUCGGAUAGUGGCAGGGGUGGGGGUUGCUAAGGAAAGGGUGGGAUGGGAGUGGGUAAAGAGUU: 1.25

Sample 4 — technique: RNA Bind-n-Seq; molecule type: RNA; matrix: in vitro; concentration: 365 nM; reference: no-protein control; direction: higher = stronger binding; quantity: RBNS enrichment (R)
Target: RNA binding protein fox-1 homolog 2, RRM domain, GST-SBP tag (RBFOX2, Homo sapiens, UniProt O43251-10, residues 100-194)
Notes: natural RNA segment, single round, ends assumed
All sequences stand within: GGGAGUUCUACAGUCCGACGAUC … UGGAAUUCUCGGGUGCCAA
Residues (chain): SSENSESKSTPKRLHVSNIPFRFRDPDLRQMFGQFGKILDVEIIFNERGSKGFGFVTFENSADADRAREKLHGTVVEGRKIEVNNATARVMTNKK
AGGCAAAAAAUAACGCACUAGUCACUGAAGUUCAUCCUCAGUUACCUCGAUAGGGUAGGUAGAUUCCUAAUAGUGCUGGUGAGCAUCACAAUGCUGUGCAAAGAUUCAAG: 0.423
UGCCCUGCUGCUGCUGCCGCCCCGCUACAGAGGCAAUGUGACCAGUCACAGGGACAGAUCACAUCUCCCCAGAGUGGCAACUCUGGUGAAACCUUUUCAGAAUCAUGGCA: 0.618
GGAGUGUGACCUUGGUGUACUGUGGCAGCCCAGAUGACUGAGUGCUACAGACGAGUGACCCUUAGAUGACCUCCUCAACUGCCUGCCUUGUGUGUGCGCGCAAGGCCCCU: 0.349
ACACCUCUCCCCACGCAGAGGGGGAAUUCUGCCCUGGUGAAACAGACACUCCAGACAUGGGAGAAGGACUUUCUGGGAACACAGAGACCAAGAGGGAGAGAGGCUUCAGA: 0.448
GGGCUCUGUCUCUGCCUUGACCUCCUGGGUCAAGUCCCUGACCUCAGGAUACCUGCUGUCCACCCAACAGACUGCAAACAUCAACUGUGUUUGGUGCUGACACUCUGAAC: 0.259
CCGAAGAUUCUGCGUGUCCUUCCACCCACCCAUGUCAACUGCCCCUUCUGAGUCUCUCCAGCGACCUGGGGCCCCUGAGGGCCCGAGGAGCUGAUAAAUAAGGGCUGAGG: 0.26
UUCGGCUGCCCAGCUCCGUGGAUAGACCUCCUCUGGGGGUGGUGCUGCUUGUAUGUUUACAUGAAAUUCUCCCAGGACAGACCACCAACCAUGGACACAGAGACCUUAGG: 0.45
CAGUGCCGUUAAUAAACUUUAGAUACAAACCAACAACCACCAUUCUCCAGUAUACUACAGUGGGAAUCACUGAUCUAGUUAACGGCAGCACUCUUGGAUUAAUUCAAUUG: 0.496

A few entries again (sample 1):
AGAAACTTGTGTTTGTCCCTGTGCTAG: 0.446 z-score
GACGATATCGGGTTTCGCGACGTGCTA: 0.587 z-score
TCATGTGTCTTAAATAGGACTGTGCTA: -0.0219 z-score
GGCGGACTGCTTTTCCTGACGTGCTAG: -0.424 z-score
GACGATTTCAGGTTCGAGACGTGCTAG: 1.63 z-score
TTAGGACTGGGACTCGGTTAGTGCTAG: -0.919 z-score
GACGATATCAATTTCGAGACGTGCTAG: 1.4 z-score
TTAGGACTGTTTATCCTTTAGTGCTAG: 0.916 z-score
